Measurements collected from several papers.
Protocols differ between the studies behind these lines. Numbers after ± are the reported error.
Sequence of UniProt P21554 (whole entry, unmodified, looked up): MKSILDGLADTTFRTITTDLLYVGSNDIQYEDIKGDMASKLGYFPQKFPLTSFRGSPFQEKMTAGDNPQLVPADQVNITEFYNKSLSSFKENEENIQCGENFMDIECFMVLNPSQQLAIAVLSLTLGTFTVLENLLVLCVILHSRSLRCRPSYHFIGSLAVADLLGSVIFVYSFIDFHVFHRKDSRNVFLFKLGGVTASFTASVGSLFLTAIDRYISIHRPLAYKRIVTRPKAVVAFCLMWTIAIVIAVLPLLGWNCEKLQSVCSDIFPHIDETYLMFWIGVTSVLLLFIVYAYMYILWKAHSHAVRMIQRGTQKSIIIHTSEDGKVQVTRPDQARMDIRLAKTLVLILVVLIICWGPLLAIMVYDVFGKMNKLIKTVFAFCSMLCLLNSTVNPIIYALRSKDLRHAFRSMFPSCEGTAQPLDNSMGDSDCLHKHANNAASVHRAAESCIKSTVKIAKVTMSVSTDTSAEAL
Sequence of UniProt Q15208 (whole entry, looked up): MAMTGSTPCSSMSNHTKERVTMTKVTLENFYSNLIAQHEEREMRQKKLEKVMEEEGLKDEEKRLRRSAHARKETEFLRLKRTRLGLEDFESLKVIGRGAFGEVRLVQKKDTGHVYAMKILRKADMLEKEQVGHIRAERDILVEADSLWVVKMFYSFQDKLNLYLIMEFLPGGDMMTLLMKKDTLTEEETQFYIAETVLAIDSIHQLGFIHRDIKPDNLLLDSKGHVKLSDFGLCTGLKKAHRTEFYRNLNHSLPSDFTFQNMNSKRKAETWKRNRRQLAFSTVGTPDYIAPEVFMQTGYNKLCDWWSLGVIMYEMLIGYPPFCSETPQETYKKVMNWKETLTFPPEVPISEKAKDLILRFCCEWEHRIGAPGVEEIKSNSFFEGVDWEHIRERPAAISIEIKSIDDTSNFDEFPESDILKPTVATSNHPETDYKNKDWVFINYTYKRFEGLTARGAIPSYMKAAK
Sequence of UniProt P34969 (whole entry, looked up): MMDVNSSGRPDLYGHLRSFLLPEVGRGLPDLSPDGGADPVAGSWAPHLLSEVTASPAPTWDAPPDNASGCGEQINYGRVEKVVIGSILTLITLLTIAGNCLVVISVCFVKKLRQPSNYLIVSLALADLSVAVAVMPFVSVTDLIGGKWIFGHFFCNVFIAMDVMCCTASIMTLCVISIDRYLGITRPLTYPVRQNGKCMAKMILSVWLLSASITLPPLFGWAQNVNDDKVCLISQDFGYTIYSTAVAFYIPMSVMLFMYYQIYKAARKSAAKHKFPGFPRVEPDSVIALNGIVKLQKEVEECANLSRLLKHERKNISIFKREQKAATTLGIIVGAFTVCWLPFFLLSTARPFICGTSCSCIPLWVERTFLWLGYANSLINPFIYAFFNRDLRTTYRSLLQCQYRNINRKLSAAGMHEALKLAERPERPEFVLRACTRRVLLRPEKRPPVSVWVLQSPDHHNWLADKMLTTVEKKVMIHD
Sequence of UniProt Q02763 (whole entry, looked up): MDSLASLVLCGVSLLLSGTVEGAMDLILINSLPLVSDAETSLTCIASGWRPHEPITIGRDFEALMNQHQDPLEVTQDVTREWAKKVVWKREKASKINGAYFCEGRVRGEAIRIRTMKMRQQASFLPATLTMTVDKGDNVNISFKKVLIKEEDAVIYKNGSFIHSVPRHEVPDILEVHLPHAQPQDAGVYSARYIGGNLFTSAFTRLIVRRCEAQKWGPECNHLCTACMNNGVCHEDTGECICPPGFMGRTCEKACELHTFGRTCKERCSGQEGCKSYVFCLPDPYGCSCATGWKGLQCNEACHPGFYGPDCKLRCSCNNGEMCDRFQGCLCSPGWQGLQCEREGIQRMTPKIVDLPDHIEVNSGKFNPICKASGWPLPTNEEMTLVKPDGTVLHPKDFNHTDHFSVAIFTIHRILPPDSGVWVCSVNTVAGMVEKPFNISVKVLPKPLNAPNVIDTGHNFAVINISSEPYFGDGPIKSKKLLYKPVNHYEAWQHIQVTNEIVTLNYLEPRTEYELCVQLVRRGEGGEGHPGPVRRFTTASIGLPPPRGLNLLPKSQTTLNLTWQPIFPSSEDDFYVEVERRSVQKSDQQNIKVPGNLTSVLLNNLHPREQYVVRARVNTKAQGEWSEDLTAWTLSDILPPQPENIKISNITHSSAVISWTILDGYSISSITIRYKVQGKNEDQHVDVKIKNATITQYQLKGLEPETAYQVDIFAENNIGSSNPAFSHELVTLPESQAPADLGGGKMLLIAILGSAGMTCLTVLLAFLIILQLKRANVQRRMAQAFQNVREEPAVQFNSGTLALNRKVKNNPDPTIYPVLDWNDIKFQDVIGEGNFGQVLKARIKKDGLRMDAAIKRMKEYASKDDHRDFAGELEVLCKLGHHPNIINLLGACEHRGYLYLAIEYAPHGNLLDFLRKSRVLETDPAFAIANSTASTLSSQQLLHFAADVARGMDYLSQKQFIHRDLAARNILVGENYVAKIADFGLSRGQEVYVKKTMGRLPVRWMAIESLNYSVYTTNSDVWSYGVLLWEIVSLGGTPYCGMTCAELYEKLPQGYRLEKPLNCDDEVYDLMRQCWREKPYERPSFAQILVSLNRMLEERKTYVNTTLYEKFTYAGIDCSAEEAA
Sequence of UniProt P48039 (whole entry, looked up): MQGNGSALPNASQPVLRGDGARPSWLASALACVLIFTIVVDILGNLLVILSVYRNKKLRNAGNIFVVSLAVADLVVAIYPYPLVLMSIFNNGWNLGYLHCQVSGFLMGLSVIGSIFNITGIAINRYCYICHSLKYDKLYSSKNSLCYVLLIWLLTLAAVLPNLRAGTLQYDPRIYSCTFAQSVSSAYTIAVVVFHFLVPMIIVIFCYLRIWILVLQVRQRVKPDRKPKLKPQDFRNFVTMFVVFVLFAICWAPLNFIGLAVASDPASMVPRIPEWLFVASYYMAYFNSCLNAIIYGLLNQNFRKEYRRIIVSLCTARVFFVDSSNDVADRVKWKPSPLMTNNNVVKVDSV
Sequence of UniProt Q01959 (whole entry, unmodified, looked up): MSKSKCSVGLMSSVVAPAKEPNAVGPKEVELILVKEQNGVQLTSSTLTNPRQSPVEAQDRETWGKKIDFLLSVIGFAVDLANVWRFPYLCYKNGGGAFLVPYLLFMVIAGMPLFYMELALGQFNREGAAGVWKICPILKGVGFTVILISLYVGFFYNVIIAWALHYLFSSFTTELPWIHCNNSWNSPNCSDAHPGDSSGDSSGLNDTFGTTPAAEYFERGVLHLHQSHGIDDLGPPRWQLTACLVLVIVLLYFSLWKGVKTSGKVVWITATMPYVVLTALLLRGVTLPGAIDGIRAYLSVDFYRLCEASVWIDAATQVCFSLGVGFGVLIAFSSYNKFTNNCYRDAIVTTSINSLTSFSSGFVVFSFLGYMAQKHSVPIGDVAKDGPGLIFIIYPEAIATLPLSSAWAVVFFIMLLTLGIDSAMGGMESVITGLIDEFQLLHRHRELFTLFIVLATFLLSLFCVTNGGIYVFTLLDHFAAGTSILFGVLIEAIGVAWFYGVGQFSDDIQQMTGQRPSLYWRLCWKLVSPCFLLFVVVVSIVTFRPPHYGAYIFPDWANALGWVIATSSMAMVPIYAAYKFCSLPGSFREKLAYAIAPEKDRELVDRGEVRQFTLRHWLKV
Sequence of UniProt P48736 (whole entry, looked up): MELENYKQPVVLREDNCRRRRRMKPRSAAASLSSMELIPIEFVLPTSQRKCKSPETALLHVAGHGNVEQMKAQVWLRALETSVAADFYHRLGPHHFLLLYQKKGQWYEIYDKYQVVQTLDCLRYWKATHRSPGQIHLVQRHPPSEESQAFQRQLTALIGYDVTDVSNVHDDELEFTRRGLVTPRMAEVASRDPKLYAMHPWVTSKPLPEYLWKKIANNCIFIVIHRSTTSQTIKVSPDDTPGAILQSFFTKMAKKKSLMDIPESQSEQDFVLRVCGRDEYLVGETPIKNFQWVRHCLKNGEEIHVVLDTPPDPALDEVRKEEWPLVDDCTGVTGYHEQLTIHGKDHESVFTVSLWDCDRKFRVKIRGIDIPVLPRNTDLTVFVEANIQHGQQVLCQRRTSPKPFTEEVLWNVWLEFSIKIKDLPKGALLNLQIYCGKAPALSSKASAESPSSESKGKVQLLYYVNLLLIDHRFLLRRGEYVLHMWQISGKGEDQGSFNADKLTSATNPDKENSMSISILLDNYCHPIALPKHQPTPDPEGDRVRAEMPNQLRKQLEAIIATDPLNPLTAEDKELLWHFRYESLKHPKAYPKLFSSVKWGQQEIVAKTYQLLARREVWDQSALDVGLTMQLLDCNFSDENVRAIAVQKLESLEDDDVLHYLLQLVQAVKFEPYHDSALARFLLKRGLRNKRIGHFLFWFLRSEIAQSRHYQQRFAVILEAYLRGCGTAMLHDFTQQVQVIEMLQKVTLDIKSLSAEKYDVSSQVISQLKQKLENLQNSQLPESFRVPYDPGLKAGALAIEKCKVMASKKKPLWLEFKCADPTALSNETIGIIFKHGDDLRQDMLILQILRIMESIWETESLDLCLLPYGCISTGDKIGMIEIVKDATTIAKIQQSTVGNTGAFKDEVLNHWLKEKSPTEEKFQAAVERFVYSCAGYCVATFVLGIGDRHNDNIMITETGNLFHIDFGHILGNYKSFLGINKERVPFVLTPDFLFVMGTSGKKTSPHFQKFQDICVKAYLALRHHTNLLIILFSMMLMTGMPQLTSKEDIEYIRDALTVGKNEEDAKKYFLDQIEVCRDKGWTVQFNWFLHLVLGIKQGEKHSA

`CC(C)(C)C(=O)OCOP(=O)(OCOC(=O)C(C)(C)C)C1CCCN(O)C1=O` (stereo not shown) gave a CC50 of 40.9 µM (COLO 205).
The viability of `CCn1ccc(-c2cc(-c3cnn(C)c3)cc([C@@H](C)NC(=O)c3cc(OCCN(C)C)ccc3C)c2)n1` is reported as 97.2% (African green monkey cells; 31.25 µM).
The remaining activity of `CC(C)CC(C(=O)N1CC2(CC1C#N)C(=O)Nc1ccccc12)N(C)C(=O)c1cc2c(F)cc(F)c(F)c2[nH]1` (stereo not shown) is reported as 0% (Replicase polyprotein 1ab, main protease (rep, Porcine epidemic diarrhea virus, UniProt P0C6Y4); protease activity, inhibitor; 3162.56 µM).
The inhibition of `Cc1sc2c(c1C)C(c1ccc(Cl)cc1)=NC(CC(=O)OC(C)(C)C)c1nnc(C)n1-2` (stereo not shown) is reported as 29% (MTNR1A (Homo sapiens, UniProt P48039); ligand displacement, radioligand; 1 µM).
`CCOCC1C(c2ccc(Cl)c(Cl)c2)CC2CCC1N2C` (stereo not shown) has a remaining activity of 12.7% (SLC6A3 (Homo sapiens, UniProt Q01959, F326A); dopamine uptake; 0.004 µM, 0.03333 h, F326A mutant, together with: [3H]dopamine; relative to: no inhibitor).
`O=C1NC(=O)c2c1c1cc(F)c[n+]3c1c1c2c2cc(O)ccc2[n]1[Ru-4]312([N]=C=S)[S+]3CC[S+]1CC[S+]2CC3` (stereo not shown) has a remaining activity of 78% (TEK (Homo sapiens, UniProt Q02763); enzyme activity; 100 nM, human enzyme, together with: 10 µM ATP; relative to: untreated).
`Nc1ccc(/C=C/C(=O)N2CCc3c(oc4c(-c5ccc(F)cc5)cc(-c5ccc(C(=O)N6CCC(F)(F)CC6)cn5)cc34)C2)cn1` has a remaining binding of 90% (PIK3CG (Homo sapiens, UniProt P48736); binding, competition with immobilised ligand; 1 µM).
For `CN(C)[C@H]1C[C@@]23CC[C@@]4(O2)C(=CC[C@]2(C)[C@@H](c5ccc6ccncc6c5)CC[C@H]24)C=C3[C@@H](O)[C@@H]1O`, the inhibition was 0.4% (STK38 (Homo sapiens, UniProt Q15208); ATP probe labelling, inhibitor, KiNativ profiling; 1 µM).
The Emax of `O=[N+]([O-])CC(c1ccco1)c1c(-c2ccccc2)[nH]c2ccccc12` (stereo not shown) is reported as 106 ± 5.95% (CNR1 (Homo sapiens, UniProt P21554, I245M); Gαi1-γ2 dissociation, BRET).
For `CS(C)(=O)=Nc1ccc(-c2ccc(-c3nc4cc(O[C@@H]5CO[C@H]6[C@@H]5OC[C@H]6O)[nH]c4cc3F)cc2)cc1`, the inhibition was 17% (HTR7 (Homo sapiens, UniProt P34969); calcium signal, antagonist; 10 µM).
`Cc1ccc2c(C(C[N+](=O)[O-])c3cccs3)c(-c3ccccc3)[nH]c2c1` (stereo not shown) gave an Emax of 100% (CNR1 (Homo sapiens, UniProt P21554); β-arrestin recruitment, agonist, luciferase).
With `Cc1ccc(N2CC3CN(C)CC3C2)cc1C(=O)N[C@H](C)c1cc(-c2cnn(C)c2)nc2ccccc12` (stereo partly shown) the viability was 12.9% (African green monkey cells; 250 µM).
`O=C1NC2(CC2)COc2ncc(F)cc2[C@H]2COCCN2c2ccn3ncc1c3n2`: “organ-to-body weight ratio” 0.62 ± 0.061% (Sprague-Dawley rat, female, kidneys; oral, 5 mg/kg/day, 4 weeks, end of treatment).
